Measured values pooled from the literature.
Parts stem from different laboratories: compare values within a part only.

Sample 1
Target: Ras GTPase-activating protein-binding protein 1, RRM domain (G3BP1, Homo sapiens, UniProt Q13283)
UniProt Q13283, sequence (whole entry, looked up): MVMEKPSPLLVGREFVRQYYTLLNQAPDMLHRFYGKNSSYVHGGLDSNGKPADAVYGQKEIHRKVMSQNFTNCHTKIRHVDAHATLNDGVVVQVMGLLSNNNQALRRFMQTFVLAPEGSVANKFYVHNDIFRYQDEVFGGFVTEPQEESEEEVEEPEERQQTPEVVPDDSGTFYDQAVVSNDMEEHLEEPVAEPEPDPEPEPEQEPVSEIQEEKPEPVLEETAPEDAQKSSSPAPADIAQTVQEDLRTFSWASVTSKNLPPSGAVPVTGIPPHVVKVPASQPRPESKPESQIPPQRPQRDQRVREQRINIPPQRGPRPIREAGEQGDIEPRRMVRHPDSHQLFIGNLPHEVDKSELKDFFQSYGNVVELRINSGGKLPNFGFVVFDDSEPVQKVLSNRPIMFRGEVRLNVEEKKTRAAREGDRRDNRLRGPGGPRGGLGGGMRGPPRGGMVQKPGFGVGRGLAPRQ
Technique: RNA Bind-n-Seq
Form: RNA
Sample: in vitro
Tested at: 1 µM
Setting: whole 134-nt RNA, ends assumed
With: 150 mM KCl
Baseline: input library
Direction: higher = stronger binding
All sequences stand within: GGGAGUUCUACAGUCCGACGAUC … UGGAAUUCUCGGGUGUCAAGG
Sequence	log2 enrichment
AGUCCUGUGCUACACAUCGUAUGUACCGAAUCGGGAAAAAGGAAAAAGGGGAAAAAGGAAAGUAUUAUGUUACGCCGUUCGGAUCUGCAC	0.00432
CUCAAGUCCUGUGCUACACAUCGUAUGUACCGAAUCGGAAAGGUGGAAAAAGGAAAGUAUUAUGUUACGCCGUUCGGAUCUGCACUUCCA	-0.192
CACAGACAACACGCACCCACACAGACACAGAGGGAAGGGGUUGGGAUGGGGACAGGGUGAAAAGCAGGGCGGGGUAGGACCCCAGCCCCU	-0.151
GUCCUGUGCUACACAUCGUAUGUACCGAAUCGGGGAAAAGGGGAAAAGGGGAAAAGGGAAAGUAUUAUGUUACGCCGUUCGGAUCUGCAC	0.383
CUCAAGUCCUGUGCUACACAUCGUAUGUACCGAAUCGGGGUGGGUGGGGUGGGGAAAGUAUUAUGUUACGCCGUUCGGAUCUGCACUUCC	0.116
UGGCCCUGGUGGCAUGCGGGGAGGAAGAGGUGGCCUUAUGGAUCGUGGUGGUCCCGGUGGAAUGUUCAGAGGUGGCCGUGGUGGAGACAG	1.02
GAAAAUUUCUCAGUUCUUAAGAAUGCUUGCUGUGGGUAUAGUGCAGGUAUAUUGAAAGGAAUUUUUUUCUUGCAGCGGGAAAGAGACAUG	-0.293
AGUGACCAUUUUAGUUAAAUUUUGUUCCUCUUCCCCCUUUUCACUUUCCUGGAAGAUCGAUGUCCCGAUCAGGAAGGUAGAGAGUUUUCC	-0.343
CCUCAAGUCCUGUGCUACACAUCGUAUGUACCGAAUCGGGAGGGGAGGAGGGGAAAGUAUUAUGUUACGCCGUUCGGAUCUGCACUUCCA	0.275
ACCAUGCAGGUGGGCAUCUUUGGGAAGUGGGGCAAGGGGGGGAUAGGGAGGGGGGUAACACUUUGGGAACAGGUGGUCCCAGGUCGUAUC	0.308
AAGUCCUGUGCUACACAUCGUAUGUACCGAAUCGGGGUGGGGUGGGGUUUUUGGGGAAAGUAUUAUGUUACGCCGUUCGGAUCUGCACUU	0.422
CCUGUGCUACACAUCGUAUGUACCGAAUCGGGGUUUUUUUGGGGAGGGGAAAAAAAGGGGAAAGUAUUAUGUUACGCCGUUCGGAUCUGC	0.229
ACCAUAAAGGUGGGCAUCUUUGGGAAGUGGGGCAAGGGGGGGAUAGGGAGGGGGGUAACACUUUGGGAACAGGUGGUCCCAGGUCGUUUC	-0.346
UAACUUUAGAGGAGGAUCUGAUGGAUAUGGCAGUGGAUGUGGAUUUGGGGAUGGCUAUAAUGGGUAUGGAGGAGGACCUGGAGGUGGCAA	-0.642

Sample 2
Target: Prothrombin, mature alpha-thrombin (F2, Homo sapiens, UniProt P00734)
Technique: aptamer microarray, sandwich
Form: DNA with 2'F-ANA
Sample: in vitro
Tested at: 200 nM
Setting: whole 15-mer aptamer, many near background
With: Cy3 exosite-II aptamer, 400 nM
Direction: higher = stronger binding
Sequence: GGTTGGTGTGGTTGG
Modification	mean fluorescence intensity [a.u.]
2'F-ANA at 2 6 9 10 13	98.9
2'F-ANA at 1 2 4 5 8 10 12 15	86.5
2'F-ANA at 2 3 4 5 6 11 13 15	57.7
2'F-ANA at 1 2 4 5 8 10 12 13 15	48.7
2'F-ANA at 2 4 5 8 10 12 13 15	53.3
2'F-ANA at 2 3 7 8 10 13 14	316
2'F-ANA at 2 3 7 9 10 13 14	278
2'F-ANA at 1 6 7 8 10 12 15	72.4
2'F-ANA at 3 6 9 11 13	874
2'F-ANA at 1 4 5 6 7 9 13 14 15	45.9
2'F-ANA at 2 3 5 7 8 11 14	56.9
2'F-ANA at 1 2 7 9 14	53.6
2'F-ANA at 1 3 4 5 7 8 9 10 11	110
2'F-ANA at 2 3 4 5 6 7 8 9 10 11 14	54.9
2'F-ANA at 1 2 3 8 9 10 12 13 15	87.5
2'F-ANA at 5 7 8 9 11 12 14	45.8
2'F-ANA at 1 2 3 4 5 7 9 11	62.6
2'F-ANA at 2 5 10 13 14 15	84.2

Sample 3
Target: Sal-like protein 4, full length isoform B (SALL4, Homo sapiens, UniProt Q9UJQ4-2, residues 1-616)
Technique: universal PBM
Form: double-stranded DNA, one strand shown
Sample: in vitro
Tested at: not given
Setting: 8-mer, flanks averaged, mean of replicates
Direction: higher = stronger binding
Construct (chain): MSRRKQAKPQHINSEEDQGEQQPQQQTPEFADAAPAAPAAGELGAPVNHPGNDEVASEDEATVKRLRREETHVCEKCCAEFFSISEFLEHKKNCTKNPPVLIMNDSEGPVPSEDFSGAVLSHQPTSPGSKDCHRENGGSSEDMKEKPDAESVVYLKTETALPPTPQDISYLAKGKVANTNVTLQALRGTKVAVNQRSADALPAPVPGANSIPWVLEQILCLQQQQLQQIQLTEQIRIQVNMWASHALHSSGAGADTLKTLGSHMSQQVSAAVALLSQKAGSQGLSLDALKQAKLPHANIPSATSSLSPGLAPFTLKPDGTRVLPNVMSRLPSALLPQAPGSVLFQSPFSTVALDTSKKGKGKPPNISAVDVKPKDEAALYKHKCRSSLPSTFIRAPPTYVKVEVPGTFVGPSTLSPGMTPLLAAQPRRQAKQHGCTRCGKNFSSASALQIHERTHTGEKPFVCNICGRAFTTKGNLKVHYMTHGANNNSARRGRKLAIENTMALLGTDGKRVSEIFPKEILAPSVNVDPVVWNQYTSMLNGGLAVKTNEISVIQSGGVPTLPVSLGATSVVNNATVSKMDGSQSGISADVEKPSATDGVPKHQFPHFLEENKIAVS
Sequence	E-score
ACAGTGAG	-0.025
ATCTAAAC	0.167
CACATTAC	0.172
ATGTCAAG	0.093
GCTTGGCA	-0.107
AAGCAATG	0.0346
GGGGAAGA	-0.031
TGTAGACA	0.119
CTCCTCAC	-0.113
CAGGATCA	-0.175
CATCGTAA	0.111
CTGACACC	-0.116
CAAGTGTA	0.172
CGAACACC	-0.261
AACTCGAT	0.0901
CGTGGTGA	-0.237
ACGCTGGG	-0.345

Sample 4
Target: Histone acetyltransferase KAT6A, winged helix 2, GST fusion (KAT6A, Homo sapiens, UniProt Q92794, residues 85-181)
Technique: protein binding microarray
Form: double-stranded DNA, one strand shown
Sample: in vitro
Tested at: not given
Setting: 8-mer, flanks averaged, mean of 2 arrays, mostly near background
Baseline: not given
Direction: higher = stronger binding
Residues (chain): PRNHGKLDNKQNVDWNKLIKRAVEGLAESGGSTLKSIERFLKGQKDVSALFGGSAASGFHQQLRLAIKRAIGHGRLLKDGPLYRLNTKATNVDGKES
Sequence	E-score
GTCCTATA	-0.274
GTACTCCA	0.00549
CAGTTAAC	0.0555
AGAAACTC	0.139
GCAGCAAC	0.267
GGGCGGCA	0.204
CACTAGTA	-0.163
ACGTACAG	-0.222
ATGAATAC	-0.143
ACGCCTGA	0.195
CATGTAAA	-0.189
ACGCCCCC	0.0208
TACGTTCA	-0.00615
ATGTTACG	-0.188
GGGTTTGA	-0.0431
CTATAGTC	-0.291

Sample 5
Target: RING finger protein unkempt homolog, zinc fingers 1-6, SBP tag (UNK, Homo sapiens, UniProt Q9C0B0, residues 30-357)
UniProt Q9C0B0, sequence (30-357, looked up): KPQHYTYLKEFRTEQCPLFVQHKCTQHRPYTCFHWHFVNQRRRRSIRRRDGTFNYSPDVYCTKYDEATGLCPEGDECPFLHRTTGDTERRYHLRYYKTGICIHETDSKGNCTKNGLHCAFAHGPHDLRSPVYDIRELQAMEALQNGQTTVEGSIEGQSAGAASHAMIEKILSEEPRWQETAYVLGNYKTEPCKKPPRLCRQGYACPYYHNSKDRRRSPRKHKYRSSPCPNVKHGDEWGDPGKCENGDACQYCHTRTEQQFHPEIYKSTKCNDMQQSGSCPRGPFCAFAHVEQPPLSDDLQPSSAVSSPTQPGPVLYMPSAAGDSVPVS
Technique: RNA Bind-n-Seq
Form: RNA
Sample: in vitro
Tested at: 100 nM
Setting: RNA with constant flanks, vertebrate orthologous sites, ends assumed
Baseline: input RNA pool
Direction: higher = stronger binding
All sequences stand within: GGGAGUUCUACAGUCCGACGAUC … CAACAGAGGAUUGAGCAUCA
Sequence	bound/input enrichment [ratio]
UUGCCUACAAUAAUGAAAACCUACAGGAAUUUUUAUUUUUCAUUUUCCCCUUAGGCAUAGUUAGUCUUUUCCCCCCCCAGGCAGAUCAUUCUGAGUGUGCGAGUGUGUGUGCACAUGUUA	0.768
UAUCUUUAGGAUGAAGCUCUUACAUCAGGUGUCACGAGUCUGGAGAACAGAUGGGUUGACCAGUUGUAUUUACAAAUUACUCUCUGUGGAUUAUAAUCCUUUGUAUACCAACAUCACAGU	0.212
GCUCCUGUAUAGCAAGUAGAAUGGGUUCCUCCUACUUCUCCCAGGAGCAAAAAGCCCAAAGAGAUUCCAGACACAUCUGAUUAUACUGUUCUGUUUUUGUUUUCUGUUAUUCUUCCGUAU	0.521
AAAUGCAAUAGAAUUACACUAAUACUGAAGUUUCCAGUUGAAAGGAUAUCCAAGUGUGUGUUGGUAGUUACUAAAAAGAAUUAUAGCUGUUAUUGCCUUGUAUUUAUAUCCCUUGUUUCA	1.41
UAAUCGCUCUAAUUGUAUUCUGAAUAAAAGUGUAACAUUGUGUAGCCUUUUUGUAUAAAUUAGACACAUAGAAAUGGUCCAAUUAGUUUCCUUUUUAAUAUGCUUAAAAUAAGCAGGUGG	2.17
UGUAUGUGUGGGUUUAGGGGAGGGGGGAGGGGGCAAGACAGGUGGAAUCUCUAAGGUGUAUGGGUAGUAGGAAGCACAGUUAGUGCUAAGUGGGCCUUUAUGUUAAACACCUCUGGGGGU	0.309
CAUGUCCCUGUUACUGUGACAUUUUAAAUAUCCACAGUGCUCACUUUUUCCAAAUGAUUCUAGUAAUUACCUAGAAAUAUUUUUCUCUUACCUGUUAUUUAUCAAUUUUCCCCCAGUAUU	1.8
CAUUAACACACAAAAUGUCUCCAGGGGGGUAUUAGAUUUGAUUUCUUACAUAUAAAACCAACCAACCAACCAACCAACCAUUUUUAAAGUAGAAGAGGGUUUUAGAUAGUAAAUGAAAUA	2.11
GACCUCCUGAACGUCUAGCUUUCAAGCUGUGGCUGUUUUAGAUACUGGUUUUAUUUUCGUUACAGUUUUUCCCUGUUUCCCACCUUCUCUCCCCUUCUUCCCAAGGUCUGACUCAUGGAU	1.2
CAGAGCAGUUACCUAGUUCGGAGCAGGCCCUACAGGGAUAUUUCGGUUCAGGCAGCGAAGCGGAUGUAUCCUACCAGCAGGAACCAUCCCAUCAGCCCUCCGUGUCCUGCAACCCCUCCA	0.492
GUCCUACCUGUGCAAACUUCACAACACUGAAUGCAAAGUAGCGAUUUCCGUAGCCACAGUAAGGUAGCUUUAGGGCACUAUUGCCAUGGUUUUACUCAUGGGCAAGUUUUGACAAUGUAU	0.648

Excerpt of the above (sample 5):
Sequence	bound/input enrichment [ratio]
UUGCCUACAAUAAUGAAAACCUACAGGAAUUUUUAUUUUUCAUUUUCCCCUUAGGCAUAGUUAGUCUUUUCCCCCCCCAGGCAGAUCAUUCUGAGUGUGCGAGUGUGUGUGCACAUGUUA	0.768
UAUCUUUAGGAUGAAGCUCUUACAUCAGGUGUCACGAGUCUGGAGAACAGAUGGGUUGACCAGUUGUAUUUACAAAUUACUCUCUGUGGAUUAUAAUCCUUUGUAUACCAACAUCACAGU	0.212
GCUCCUGUAUAGCAAGUAGAAUGGGUUCCUCCUACUUCUCCCAGGAGCAAAAAGCCCAAAGAGAUUCCAGACACAUCUGAUUAUACUGUUCUGUUUUUGUUUUCUGUUAUUCUUCCGUAU	0.521
AAAUGCAAUAGAAUUACACUAAUACUGAAGUUUCCAGUUGAAAGGAUAUCCAAGUGUGUGUUGGUAGUUACUAAAAAGAAUUAUAGCUGUUAUUGCCUUGUAUUUAUAUCCCUUGUUUCA	1.41
UAAUCGCUCUAAUUGUAUUCUGAAUAAAAGUGUAACAUUGUGUAGCCUUUUUGUAUAAAUUAGACACAUAGAAAUGGUCCAAUUAGUUUCCUUUUUAAUAUGCUUAAAAUAAGCAGGUGG	2.17
UGUAUGUGUGGGUUUAGGGGAGGGGGGAGGGGGCAAGACAGGUGGAAUCUCUAAGGUGUAUGGGUAGUAGGAAGCACAGUUAGUGCUAAGUGGGCCUUUAUGUUAAACACCUCUGGGGGU	0.309
CAUGUCCCUGUUACUGUGACAUUUUAAAUAUCCACAGUGCUCACUUUUUCCAAAUGAUUCUAGUAAUUACCUAGAAAUAUUUUUCUCUUACCUGUUAUUUAUCAAUUUUCCCCCAGUAUU	1.8
CAUUAACACACAAAAUGUCUCCAGGGGGGUAUUAGAUUUGAUUUCUUACAUAUAAAACCAACCAACCAACCAACCAACCAUUUUUAAAGUAGAAGAGGGUUUUAGAUAGUAAAUGAAAUA	2.11
